{"data": "Measured values of several laboratories", "cell line": "MDCK", "note": "Each line is one published result; not all experiments were run side by side. Several values in a cell are separate wells, animals, samples, runs or records. ± marks the error that the study gave."}
{"SMILES": "Cn1cc(-c2cccc(N3CCn4c(cc5c4CC(C)(C)C5)C3=O)c2CO)cc(Nc2ccncn2)c1=O", "concentration": "10 µM", "time": "3 h", "endpoint": "apparent permeability A-B", "value": "24.3 ×10⁻⁶ cm/s"}
{"SMILES": "NC(=O)c1ncn([C@@H]2O[C@H](CO)[C@@H](O)[C@H]2O)n1", "method": "CCK-8", "concentration": "100 µM", "time": "24 h", "endpoint": "viability", "value": "87.5 ± 1.56%"}
{"SMILES": "CC(C)(O)Cc1nc(N)[nH]c(=O)c1Br", "read-out": "cell morphology alteration", "endpoint": "minimum cytotoxic concentration", "value": "> 100 µM"}
{"SMILES": "Cn1cc(-c2cc(F)cc(N3CCn4c(cc5c4CCCC5)C3=O)c2CO)cc(Nc2ccc(N3CCN(C4COC4)CC3)cn2)c1=O", "concentration": "10 µM", "time": "3 h", "endpoint": "apparent permeability A-B", "value": "11.5 ×10⁻⁶ cm/s"}
{"SMILES": "CCCCCc1nc(N)[nH]c(=O)c1Br", "read-out": "cell morphology alteration", "endpoint": "minimum cytotoxic concentration", "value": "> 100 µM"}
{"SMILES": "O=c1[nH]c(=O)n([C@H]2C[C@H](O)[C@@H](CO)O2)cc1F", "method": "CCK-8", "concentration": "100 µM", "time": "24 h", "endpoint": "viability", "value": "94 ± 0.69%"}
{"SMILES": "Nc1nc(CC(O)c2ccccc2C(F)(F)F)c(Br)c(=O)[nH]1 (stereo not drawn)", "read-out": "cell morphology alteration", "endpoint": "minimum cytotoxic concentration", "value": "> 100 µM"}
{"SMILES": "CCOC(=O)C1=C[C@@H](OC(CC)CC)[C@H](NC(C)=O)[C@@H](N)C1", "method": "MTT", "time": "3 (unit not given)", "endpoint": "CC50", "value": "> 100 µM"}
{"SMILES": "Cn1cc(-c2cccc(N3CCc4c(cc5n4CCCC5)C3=O)c2CO)cc(Nc2ccncn2)c1=O", "concentration": "10 µM", "time": "3 h", "endpoint": "apparent permeability A-B", "value": "10.9 ×10⁻⁶ cm/s"}
{"SMILES": "Nc1ncn([C@@H]2O[C@H](CO)[C@@H](O)[C@H]2O)c(=O)n1", "method": "CCK-8", "concentration": "100 µM", "time": "24 h", "endpoint": "viability", "value": "68.77 ± 0.01%"}
{"SMILES": "NC(=O)c1nnn([C@@H]2C(F)=C(CO)[C@@H](O)[C@H]2O)c1N", "method": "MTT", "time": "3 (unit not given)", "endpoint": "CC50", "value": "> 100 µM"}
{"SMILES": "Cc1ncc(OC[C@@]2(c3cccc(F)c3)C[C@H]2C(=O)Nc2ccc(F)cn2)c(C)n1", "read-out": "permeability basolateral to apical", "concentration": "1 µM", "time": "90 min", "pH": "pH 6.5 apical to 7.4 basolateral", "endpoint": "Papp", "value": "43.2 ×10⁻⁶ cm/s and 53.4 ×10⁻⁶ cm/s"}
{"SMILES": "NC(=O)c1ncn([C@@H]2O[C@H](CO)[C@@H](O)[C@H]2O)n1", "read-out": "cell morphology alteration", "endpoint": "minimum cytotoxic concentration", "value": "> 100 µM"}
{"SMILES": "OCC1=C(F)[C@@H](n2nnc3c(NO)ncnc32)[C@H](O)[C@@H]1O", "method": "MTT", "time": "3 (unit not given)", "endpoint": "CC50", "value": "> 100 µM"}
{"SMILES": "CC(N)C12CC3CC(CC(C3)C1)C2 (stereo not drawn)", "read-out": "cell morphology alteration", "endpoint": "minimum cytotoxic concentration", "value": "> 200 µM"}
{"SMILES": "Sc1ncnc2nc[nH]c12", "method": "CCK-8", "concentration": "100 µM", "time": "24 h", "endpoint": "viability", "value": "83.07 ± 0.74%"}
{"SMILES": "COc1ccc(/C=C/c2nc(N)[nH]c(=O)c2Br)cc1OC", "read-out": "cell morphology alteration", "endpoint": "minimum cytotoxic concentration", "value": "100 µM"}
{"SMILES": "CC(C)C[C@H](NC(=O)OCc1ccccc1)C(=O)N[C@@H](CC(C)C)C(=O)N[C@@H](CC1CCNC1=O)C(=O)C(=O)NC1CC1 (stereo partly drawn)", "time": "5 (unit not given)", "endpoint": "CC50", "value": "188 ± 3.6 µM"}
{"note": "Excerpt of the above:"}
{"SMILES": "CC(C)(O)Cc1nc(N)[nH]c(=O)c1Br", "read-out": "cell morphology alteration", "endpoint": "minimum cytotoxic concentration", "value": "> 100 µM"}
{"SMILES": "Cn1cc(-c2cc(F)cc(N3CCn4c(cc5c4CCCC5)C3=O)c2CO)cc(Nc2ccc(N3CCN(C4COC4)CC3)cn2)c1=O", "concentration": "10 µM", "time": "3 h", "endpoint": "apparent permeability A-B", "value": "11.5 ×10⁻⁶ cm/s"}
